Measurements of several laboratories.
Each numbered part is a random draw from the data of one study; scales do not carry over between parts.
Sequence of UniProt Q9C0C9 (whole entry, looked up): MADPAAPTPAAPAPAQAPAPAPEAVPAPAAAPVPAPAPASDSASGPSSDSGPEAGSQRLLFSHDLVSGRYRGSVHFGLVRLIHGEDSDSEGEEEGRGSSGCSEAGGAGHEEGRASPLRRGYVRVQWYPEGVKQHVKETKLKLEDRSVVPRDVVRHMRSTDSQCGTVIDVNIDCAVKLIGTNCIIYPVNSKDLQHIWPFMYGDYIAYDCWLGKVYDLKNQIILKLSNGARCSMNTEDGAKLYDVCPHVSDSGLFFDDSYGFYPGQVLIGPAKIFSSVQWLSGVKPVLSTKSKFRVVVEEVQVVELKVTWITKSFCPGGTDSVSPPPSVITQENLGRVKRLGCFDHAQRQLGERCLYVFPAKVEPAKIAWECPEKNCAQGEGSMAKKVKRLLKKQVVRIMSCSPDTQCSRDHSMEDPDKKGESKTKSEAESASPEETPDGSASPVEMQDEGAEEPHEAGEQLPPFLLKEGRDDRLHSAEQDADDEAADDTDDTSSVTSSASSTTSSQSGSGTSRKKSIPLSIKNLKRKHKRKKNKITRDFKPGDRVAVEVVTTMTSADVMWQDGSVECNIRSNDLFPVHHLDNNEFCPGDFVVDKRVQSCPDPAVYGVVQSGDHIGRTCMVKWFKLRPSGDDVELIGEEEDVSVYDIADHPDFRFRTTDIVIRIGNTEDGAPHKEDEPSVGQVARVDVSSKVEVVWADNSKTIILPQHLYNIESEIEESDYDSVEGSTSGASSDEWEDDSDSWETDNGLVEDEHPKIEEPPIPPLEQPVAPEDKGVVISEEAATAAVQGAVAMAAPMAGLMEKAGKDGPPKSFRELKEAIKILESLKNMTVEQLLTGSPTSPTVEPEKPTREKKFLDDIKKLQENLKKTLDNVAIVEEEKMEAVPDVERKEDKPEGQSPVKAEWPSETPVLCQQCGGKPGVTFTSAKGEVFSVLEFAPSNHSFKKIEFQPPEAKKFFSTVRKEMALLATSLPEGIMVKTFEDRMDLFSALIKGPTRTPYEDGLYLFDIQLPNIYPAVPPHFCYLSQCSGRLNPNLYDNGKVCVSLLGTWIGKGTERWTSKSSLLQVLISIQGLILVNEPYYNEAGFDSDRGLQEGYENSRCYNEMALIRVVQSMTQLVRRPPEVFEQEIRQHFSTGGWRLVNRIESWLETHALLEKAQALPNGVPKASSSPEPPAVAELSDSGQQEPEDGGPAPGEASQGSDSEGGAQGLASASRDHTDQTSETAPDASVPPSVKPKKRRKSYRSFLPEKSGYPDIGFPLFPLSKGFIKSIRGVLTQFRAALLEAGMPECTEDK
Sequence of UniProt Q969T4 (whole entry, looked up): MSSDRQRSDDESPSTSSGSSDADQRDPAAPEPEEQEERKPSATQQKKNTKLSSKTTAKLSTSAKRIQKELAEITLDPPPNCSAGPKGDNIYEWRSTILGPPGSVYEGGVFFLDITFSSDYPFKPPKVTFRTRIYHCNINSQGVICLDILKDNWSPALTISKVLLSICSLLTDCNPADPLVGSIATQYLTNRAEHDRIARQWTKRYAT
Sequence of UniProt Q00534 (whole entry, looked up): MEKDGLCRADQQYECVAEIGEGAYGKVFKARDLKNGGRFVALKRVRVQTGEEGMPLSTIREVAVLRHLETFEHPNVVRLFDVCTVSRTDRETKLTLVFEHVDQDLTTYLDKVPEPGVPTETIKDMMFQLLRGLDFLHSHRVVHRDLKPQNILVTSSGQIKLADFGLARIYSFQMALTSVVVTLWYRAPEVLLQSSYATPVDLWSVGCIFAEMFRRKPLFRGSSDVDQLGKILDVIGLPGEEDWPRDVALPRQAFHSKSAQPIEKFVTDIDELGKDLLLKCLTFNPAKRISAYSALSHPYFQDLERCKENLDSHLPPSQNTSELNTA
Sequence of UniProt O00762 (whole entry, looked up): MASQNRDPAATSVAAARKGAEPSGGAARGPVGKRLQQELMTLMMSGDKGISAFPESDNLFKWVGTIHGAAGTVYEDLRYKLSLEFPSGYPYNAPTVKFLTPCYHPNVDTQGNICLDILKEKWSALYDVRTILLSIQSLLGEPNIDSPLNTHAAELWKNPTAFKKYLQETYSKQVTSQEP
Sequence of UniProt Q9NPD8 (whole entry, looked up): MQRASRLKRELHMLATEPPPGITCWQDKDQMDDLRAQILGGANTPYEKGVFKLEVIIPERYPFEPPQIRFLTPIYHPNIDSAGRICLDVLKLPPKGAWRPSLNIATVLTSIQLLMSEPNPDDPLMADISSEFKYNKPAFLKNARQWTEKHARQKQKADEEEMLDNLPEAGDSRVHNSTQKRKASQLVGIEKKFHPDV
Sequence of UniProt P63146 (whole entry, looked up): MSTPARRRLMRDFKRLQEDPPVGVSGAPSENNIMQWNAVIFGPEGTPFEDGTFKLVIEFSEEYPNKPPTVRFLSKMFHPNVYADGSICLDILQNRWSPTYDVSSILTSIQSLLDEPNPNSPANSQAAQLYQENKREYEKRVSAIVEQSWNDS
Sequence of UniProt Q9Y385 (whole entry, looked up): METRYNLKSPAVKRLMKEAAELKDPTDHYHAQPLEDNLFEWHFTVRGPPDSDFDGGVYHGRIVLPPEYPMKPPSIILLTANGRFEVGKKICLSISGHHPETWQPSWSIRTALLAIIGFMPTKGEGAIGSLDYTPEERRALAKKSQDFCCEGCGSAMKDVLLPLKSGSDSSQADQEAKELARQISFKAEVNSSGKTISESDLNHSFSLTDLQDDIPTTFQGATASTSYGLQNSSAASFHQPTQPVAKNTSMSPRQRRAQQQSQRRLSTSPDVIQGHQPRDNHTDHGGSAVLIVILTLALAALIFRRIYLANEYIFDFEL
Sequence of UniProt Q7Z7E8 (whole entry, looked up): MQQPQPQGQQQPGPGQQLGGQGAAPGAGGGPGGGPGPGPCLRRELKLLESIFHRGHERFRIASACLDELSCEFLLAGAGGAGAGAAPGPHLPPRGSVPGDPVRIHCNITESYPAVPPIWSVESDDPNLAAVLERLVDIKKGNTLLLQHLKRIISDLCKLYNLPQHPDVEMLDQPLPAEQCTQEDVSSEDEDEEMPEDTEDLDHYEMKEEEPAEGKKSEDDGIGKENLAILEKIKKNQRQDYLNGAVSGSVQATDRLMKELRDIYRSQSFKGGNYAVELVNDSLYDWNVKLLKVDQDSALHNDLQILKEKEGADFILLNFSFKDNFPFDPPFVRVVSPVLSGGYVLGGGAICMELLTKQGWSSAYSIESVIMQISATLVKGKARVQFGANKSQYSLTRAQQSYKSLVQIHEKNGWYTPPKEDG

Study 1
Target: Interferon regulatory factor 5, full length, phosphomimetic (IRF5, Homo sapiens, UniProt Q13568-2, residues 1-514, S451D/S453D/S456D/S462D)
Technique: protein-binding microarray
Molecule type: double-stranded DNA, one strand shown
Sample: in vitro
Concentration: 940 nM top
Notes: 60-bp whole probe
Together with: salmon DNA 0.4 mg/ml
Reference: random background probes
Reading: higher = stronger binding
All sequences stand within: GCCTAGCAC … GTCTTGATTCGCTTGACGCTGCTG
Oligonucleotide	fitted relative affinity [z-score]
TCAGGTCTCGGACTGGGTTAGTGCTAG	0.647
GACGGACTACTTTTCCTGACGTGCTAG	-0.0535
TCTTTCACAAGACGAAAGGAGTGCTAG	1.05
GACGGTCCCGGTATCGGGACGTGCTAG	2.02
GACGGTTTCTTTTCCCTGACGTGCTAG	2.95
GACGGACTGGTCTTTCGGGACGTGCTA	-0.202
TTAGATCTGGGGACTGGATTAGTGCTA	-0.262
GACGGACTGGGTATCGGTACGTGCTAG	3.18

Study 2
Sequence: PAELEVQASECVVCLEREAQMIFLNCGHVCCCQQCCQPLRTCPLCRQDIAQRLRIY (LRSAM1 RING domain (UniProt Q6UWE0))
Technique: yeast two-hybrid
Sample: yeast
Notes: mostly zero background
Reference: not given
Reading: higher = stronger interaction
target	lacZ reporter activity
UBE2I UBC core domain (UniProt P63279)	0
UBE2T UBC core domain (UniProt Q9NPD8)	0
UBE2B UBC core domain (UniProt P63146)	0
UBE2C UBC core domain (UniProt O00762)	0
UBE2E3 UBC core domain (UniProt Q969T4)	0
UBE2Q1 UBC core domain (UniProt Q7Z7E8)	0
UBE2J1 UBC core domain (UniProt Q9Y385)	0
UBE2O UBC core domain (UniProt Q9C0C9)	0

Study 3
Target: Hepatocyte nuclear factor 3-alpha (Foxa1, Mus musculus, UniProt P35582, residues 1-468, full length assumed)
Technique: EMSA with sequencing
Molecule type: double-stranded DNA, one strand shown
Sample: in vitro
Concentration: 10 and 20 nM
Notes: whole designed probe, mean of two concentrations, ends assumed
Reference: negative control set to 0
Reading: higher = stronger binding
All sequences stand within: GTGAGCGGTGCCCATTGATGGGGAAC … TTTCACTGGGATCGTGGGGAC
Residues (chain): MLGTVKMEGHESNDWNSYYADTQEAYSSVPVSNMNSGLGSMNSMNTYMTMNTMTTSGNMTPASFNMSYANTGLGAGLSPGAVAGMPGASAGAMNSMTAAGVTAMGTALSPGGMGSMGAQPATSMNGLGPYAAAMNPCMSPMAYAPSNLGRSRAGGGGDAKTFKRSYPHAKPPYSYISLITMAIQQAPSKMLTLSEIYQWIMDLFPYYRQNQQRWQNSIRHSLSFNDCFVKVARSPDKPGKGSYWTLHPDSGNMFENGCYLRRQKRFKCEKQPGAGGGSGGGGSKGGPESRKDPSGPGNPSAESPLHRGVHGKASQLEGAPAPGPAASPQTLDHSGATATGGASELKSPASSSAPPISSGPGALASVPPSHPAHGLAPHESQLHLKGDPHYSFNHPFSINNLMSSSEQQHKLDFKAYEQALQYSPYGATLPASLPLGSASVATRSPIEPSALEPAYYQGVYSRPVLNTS
Oligonucleotide	normalised bound fraction
ATCTTCCCCCTCTTCCTTGCCCCACCAGCTCACCTTCCCGGGTTATTTGCACAAAGGAAAATAAATAAAGCCGGCATTCGTTAACGCAGTTCTGGCGCAAACTGCTGTTTGCTCTGGATCTAACATGGTCCTTTGGCGAGGCGTGGCTCCGGGAGAGCAAAGCACCGTGTCAGGGCCATGATCCGGGCTCGCC	0.374 ratio
AAGAATTAAAATAAACTTGACTAGTATCTCTGCAACCAAACATCAAATCAGTCTTGTTGGTCATTCGATTTAGACAGTATTCTTATGAGGAGCATGTTTACTCTGTATTTTTTTCTTCAGCTCAAGAGATTGTACTTTTGCATTTTTCTTCATAATCATTATCCTATTCATAGAATCAGTAATTAGTGAAATT	0.219 ratio
GGGGCATTAGCAACAGACTTTCATAGCTAAACCCTACTAGTTACAGAGATTTATTTATTAGTCCACTGGGCTAGAAAAAAAGCCATTCATATGTAAACAGGGAGATAATAAAGGCTATCACATTTATGTGTATACTCAAATGGAGCAATTTTAATTAACGTCTAAGTACCTTTACATATATTATAATTATTGT	0.294 ratio
TGTTCTGAAAGCATTGGGATGCATCCATGTTTTGCGTACAGACCCCCTTCTGTCTGGTGCACTCTGCCCTCTAAAAGCTTCCTGAATTGCTTTGTAAACAAGGCAGCTACTACAGCTGCAACTGTTGGGTTTGGACTTTTGCCAGCTTGAAATTTATCCCTGCCCTAATGCTATATATCTGGGAGCAGGCAGT	0.248 ratio
AATCCAGCTACCTATCTTCAGTTCCTTGGCCTTCAGCTGGCAGTGAAACAGACACATCAGCTTTAAGACTGGCAGCCAAATAGTTAACGATCTGTAAACATACATAGAATTACGCAAGGAGTTCCTGTTCAAACAGACTGGATGAAAGCCCTTCCATAAAGAACCCTTTAGGTGATGATGCTAAAATTATTTT	0.276 ratio
GTAGGAGTTACTCTATAAAACAGAATGACAGAGGTTTTGTCTATAAAACATTAGACTATGTAGACTATTAACTCTATGGAAATCTAATAAGCCATGTTTACTTTATTTAACCTATCCCAAGTAATTTTAGGCTGCTTTAGCCATTATGTGGTTTCTCCAAGAATCATTGTGAAAAGTGATCGCATTTTATTTC	0.384 ratio
TTCTGGGCCCAAAATTCAGGTAAACAATTGCATTTCCACTTGGAATACAAATACTTCATAACTTCAGAATTCATTACCTCTTGTACCTAGTACATGTTTACTCTGTCAGTTACAACCTTTTGAAAATTTAATTCAAAAATTTTCTGTTAGAACTGAAATTCATGGACTTTCCGTGTCTTTGGATTAATTTTAC	0.274 ratio
ATCTTCCCCCTCTTCCTTGCCCCACCAGTTTGCCTTCCCGGGTTATTTGCAGATAGGAAAATAAATAAAGCCGGCATTCGTTAACCCTCTTCTGGCGCAAACTGCTGTTTGCTCTGGATGAATCATGGTCCTTTGGCGACGCCAGGCTCCGGGAGAGCAAAGCACCGTGTCAGGGCCATGATCCGGGGTGGCC	0.331 ratio

Single results of other studies
Structure (SMILES)	target	test	setting	scale	measurement	result
NCCNc1ncc(C(N)=O)c(Nc2cccc(C(F)(F)F)c2)n1	Cyclin-dependent kinase 6, with cyclin D1 (CDK6, Homo sapiens, UniProt Q00534)	enzyme activity, inhibitor	0.5 µM	reference: control	remaining activity	94.6%

Repeated from above (study 3):
Oligonucleotide	normalised bound fraction
AAGAATTAAAATAAACTTGACTAGTATCTCTGCAACCAAACATCAAATCAGTCTTGTTGGTCATTCGATTTAGACAGTATTCTTATGAGGAGCATGTTTACTCTGTATTTTTTTCTTCAGCTCAAGAGATTGTACTTTTGCATTTTTCTTCATAATCATTATCCTATTCATAGAATCAGTAATTAGTGAAATT	0.219 ratio
GGGGCATTAGCAACAGACTTTCATAGCTAAACCCTACTAGTTACAGAGATTTATTTATTAGTCCACTGGGCTAGAAAAAAAGCCATTCATATGTAAACAGGGAGATAATAAAGGCTATCACATTTATGTGTATACTCAAATGGAGCAATTTTAATTAACGTCTAAGTACCTTTACATATATTATAATTATTGT	0.294 ratio
TTCTGGGCCCAAAATTCAGGTAAACAATTGCATTTCCACTTGGAATACAAATACTTCATAACTTCAGAATTCATTACCTCTTGTACCTAGTACATGTTTACTCTGTCAGTTACAACCTTTTGAAAATTTAATTCAAAAATTTTCTGTTAGAACTGAAATTCATGGACTTTCCGTGTCTTTGGATTAATTTTAC	0.274 ratio
ATCTTCCCCCTCTTCCTTGCCCCACCAGTTTGCCTTCCCGGGTTATTTGCAGATAGGAAAATAAATAAAGCCGGCATTCGTTAACCCTCTTCTGGCGCAAACTGCTGTTTGCTCTGGATGAATCATGGTCCTTTGGCGACGCCAGGCTCCGGGAGAGCAAAGCACCGTGTCAGGGCCATGATCCGGGGTGGCC	0.331 ratio
